Published values pooled from the literature.
Each numbered part is a random draw from the data of one study; scales do not carry over between parts. Positions count from the first letter of the parent shown.

Set 1
Target: RING finger protein unkempt homolog, zinc fingers 1-6, GST-SBP tag (UNK, Homo sapiens, UniProt Q9C0B0, residues 30-357)
Technique: RNA Bind-n-Seq
Molecule type: RNA
Sample: in vitro
Concentration: not given
Notes: RNA with constant flanks, human and mouse sites, ends assumed
Baseline: input RNA pool
Direction: higher = stronger binding
Quantity: bound/input enrichment
Target sequence (chain): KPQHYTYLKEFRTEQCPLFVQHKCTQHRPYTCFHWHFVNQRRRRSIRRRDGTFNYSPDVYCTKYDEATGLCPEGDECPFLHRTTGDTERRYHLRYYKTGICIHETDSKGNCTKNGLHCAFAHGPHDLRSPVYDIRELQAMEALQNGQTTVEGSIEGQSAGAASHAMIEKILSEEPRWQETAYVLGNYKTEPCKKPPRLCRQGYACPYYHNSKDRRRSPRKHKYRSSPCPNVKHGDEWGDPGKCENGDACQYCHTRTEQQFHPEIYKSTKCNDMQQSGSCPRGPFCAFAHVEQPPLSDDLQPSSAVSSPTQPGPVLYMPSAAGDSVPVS
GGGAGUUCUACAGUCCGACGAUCGUCAGAAAGCAUCAGCUUUUCUCGAUGGACCCAUUCAUCUAAUGAAAUAUGCCUGUACUAUUUUAAAAAGCUUUGUAUUUCGUCAUAGAAAAGUUCAUCCCCCCAGAAUGAAAAUGAGGACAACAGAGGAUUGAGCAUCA: 0.571 ratio
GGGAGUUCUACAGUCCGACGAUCGAAGUUUUUACAAAGAUCAGACUGGUACUAGAAGUGCUCCAGAAACAGCUUCUAGAUUUGCCACUUGACACUGACCUGGAAAAUGAAAAAACAUCUACUGUCCCAUUGGCUGAGAUGCUUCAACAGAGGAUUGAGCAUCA: 0.158 ratio
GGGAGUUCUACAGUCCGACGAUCAAGCAUGUUAUUUAUUAGCAAUGAUAUGCAGUCAAUAAUAUUUGUCAUUUAAAAGUAAUGGUGUUGCUUUUUUUUUUUUUUUAAAUGGUUUUUCAAGACAGGGUUUCUCUGUAUAGCCCUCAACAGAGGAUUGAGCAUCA: 1.87 ratio
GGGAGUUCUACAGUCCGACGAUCGAAAAAUACUUCCAAUUCCAAGAAGAGGGCAAGGAAGGAGAGAACAGGGCAGUUAUCCAUUAUAGGGAUGAUGAGACCAUGUAUGUUGAGUCUAAAAAGGACAGAGUCACAGUAGUCUUCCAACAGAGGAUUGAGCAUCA: 0.423 ratio
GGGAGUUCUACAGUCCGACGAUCCAGCAGAGGCUGAUCUUUGCAGGCAAGCAGCUGGAAGAUGGCCGCACCCUGUCAGACUACAACAUCCAGAAAGAGUCCACCCUGCACCUGGUCCUUCGCCUCAGAGGUGGCAUGCAGAUCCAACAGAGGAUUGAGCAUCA: 0.0661 ratio
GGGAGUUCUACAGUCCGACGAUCGGAAUGCAGCCUGCUCACAGCGCCCUGAUGCCCUCCGUGACACACAUACCCACCCCUCCACAUAGAACACAAGUCCCCCGGUGCAUGCACCAUGCCCACUGCCUUUCUUUGCACUGAUGUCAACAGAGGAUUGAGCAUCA: 0.61 ratio
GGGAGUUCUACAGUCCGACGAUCUCUGCUCGAAGACUGGACCCAGAGUACUGGAAGACCAUCCUGAGUUGUGUAUAUGUUUUUAUAGUAUUUGGGUUUACGUCUUUCAUUAUGGUUAUUGUUCAUGAGCGUGUGCCUGACAUGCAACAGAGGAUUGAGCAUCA: 0.238 ratio
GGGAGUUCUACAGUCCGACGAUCAGAGCUGGAAGUGGCCCGGUGCUGUUUCUGCUUUGGUCCAGAUGGAGAAGACACUGAAGAGCAGCAGAACGUCAAGAAGGGACCCAGGGUGAUUUAUGAUGAGAAGAAAGGCACCGUGUACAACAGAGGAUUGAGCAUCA: 0.243 ratio

Set 2
Target: Ras GTPase-activating protein-binding protein 1, RRM domain (G3BP1, Homo sapiens, UniProt Q13283)
UniProt Q13283, sequence (whole entry, looked up): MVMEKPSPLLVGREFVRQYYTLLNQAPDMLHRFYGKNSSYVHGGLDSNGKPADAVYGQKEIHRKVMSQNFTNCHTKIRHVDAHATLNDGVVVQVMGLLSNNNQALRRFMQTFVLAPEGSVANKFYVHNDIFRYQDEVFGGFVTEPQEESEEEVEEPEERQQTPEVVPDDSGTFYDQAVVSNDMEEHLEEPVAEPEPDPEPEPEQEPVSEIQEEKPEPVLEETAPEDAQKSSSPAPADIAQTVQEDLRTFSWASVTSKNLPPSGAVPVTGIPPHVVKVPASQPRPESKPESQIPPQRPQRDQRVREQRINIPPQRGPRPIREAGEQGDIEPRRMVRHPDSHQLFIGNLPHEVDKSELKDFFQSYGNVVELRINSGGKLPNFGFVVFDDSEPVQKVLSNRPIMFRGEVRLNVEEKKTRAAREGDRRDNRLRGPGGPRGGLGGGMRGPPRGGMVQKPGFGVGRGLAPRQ
Technique: RNA Bind-n-Seq
Molecule type: RNA
Sample: in vitro
Concentration: 1 µM
Notes: whole 134-nt RNA, ends assumed
With: 150 mM KCl
Baseline: input library
Direction: higher = stronger binding
Quantity: log2 enrichment
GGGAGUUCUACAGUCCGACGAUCUAAUUGAAGAACCCAUUUUGCUCAUUUUAGGCAUCGUUAAAGAAUCUGGAGUGAAGCACAAGGGAUUGAUUGAAAUACCCAAUCUUUCUGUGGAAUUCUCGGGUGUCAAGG: -0.0535
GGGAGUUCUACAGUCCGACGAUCCAAGUCCUGUGCUACACAUCGUAUGUACCGAAUCGGGAGGGUUUGGGUUUUUGGGAAAGUAUUAUGUUACGCCGUUCGGAUCUGCACUUCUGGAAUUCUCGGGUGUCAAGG: 0.639
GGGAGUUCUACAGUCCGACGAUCAAGUCCUGUGCUACACAUCGUAUGUACCGAAUCGGAAAAGGGGAAAAGGAAAAGGGGAAAGUAUUAUGUUACGCCGUUCGGAUCUGCACUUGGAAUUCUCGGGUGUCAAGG: -0.0593
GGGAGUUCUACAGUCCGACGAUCGUCCUGUGCUACACAUCGUAUGUACCGAAUCAAACCCAAACCCCCCCAAAUUUUUAAAAAAGUAUUAUGUUACGCCGUUCGGAUCUGCACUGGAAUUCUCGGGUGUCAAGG: -0.164
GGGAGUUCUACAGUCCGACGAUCUAACUUUAGAGGAGGAUCUGAUGGAUAUGGCAGUGGACGUGGAUUUGGGGAUGGCUAUAAUGGGUAUGGAGGAGGACCUGGAAGUGGCAAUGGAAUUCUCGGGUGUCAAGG: -0.247
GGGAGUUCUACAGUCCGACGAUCGUCCUGUGCUACACAUCGUAUGUACCGAAUCAAAUUUUUUUAAAUUUAAAUUUUUAAAAAAGUAUUAUGUUACGCCGUUCGGAUCUGCACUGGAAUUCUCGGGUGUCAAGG: -0.607
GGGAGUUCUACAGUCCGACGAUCGUCCUGUGCUACACAUCGUAUGUACCGAAUCGGGUGGGUUUUUUUGGGAAAAAAAGGGAAAGUAUUAUGUUACGCCGUUCGGAUCUGCACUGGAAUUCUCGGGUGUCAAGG: 0.265
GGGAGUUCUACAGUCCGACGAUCGCAGGAAGUAAAAACAAAUGGAAAUGCUUCGGAUAGUGGCAGGGGUGGGGGUUGCUAAGGAACGGGUGGGAUGGGAGUGGGUAAAGAGUUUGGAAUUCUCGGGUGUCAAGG: 1.03
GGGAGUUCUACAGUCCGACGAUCUCAAGUCCUGUGCUACACAUCGUAUGUACCGAAUCGGAAAAAGGAAAGGAAAGGAAAGUAUUAUGUUACGCCGUUCGGAUCUGCACUUCCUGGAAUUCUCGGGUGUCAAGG: -0.291

Set 3
Target: CCND2, cyclin fold, Cln2 fusion (human)
Technique: yeast growth competition, sequencing
Sample: yeast
Notes: weak parent motif
Baseline: not given
Direction: higher = stronger binding
Quantity: normalised enrichment score
Parent: CDKN1A docking peptide (human); SKACRRLFGPVDS
A3V: 0.0427
L7Y: 0.184
R5K F8L: -0.145
R5M: -0.00793
R5C: 0.492
F8G: 0.119
R6G: -0.111
D12F: 0.323
V11N: 0.579
R6P: -0.0368
D12E: -0.0595
L7S: -0.0711
V11Q: 0.906
D12N: 0.511
P10S: 0.37
D12H: 0.107

Set 4
Target: Sal-like protein 4, full length isoform B (SALL4, Homo sapiens, UniProt Q9UJQ4-2, residues 1-616)
Technique: universal PBM
Molecule type: double-stranded DNA, one strand shown
Sample: in vitro
Concentration: not given
Notes: 8-mer, flanks averaged, mean of replicates
Direction: higher = stronger binding
Quantity: E-score
Target sequence (chain): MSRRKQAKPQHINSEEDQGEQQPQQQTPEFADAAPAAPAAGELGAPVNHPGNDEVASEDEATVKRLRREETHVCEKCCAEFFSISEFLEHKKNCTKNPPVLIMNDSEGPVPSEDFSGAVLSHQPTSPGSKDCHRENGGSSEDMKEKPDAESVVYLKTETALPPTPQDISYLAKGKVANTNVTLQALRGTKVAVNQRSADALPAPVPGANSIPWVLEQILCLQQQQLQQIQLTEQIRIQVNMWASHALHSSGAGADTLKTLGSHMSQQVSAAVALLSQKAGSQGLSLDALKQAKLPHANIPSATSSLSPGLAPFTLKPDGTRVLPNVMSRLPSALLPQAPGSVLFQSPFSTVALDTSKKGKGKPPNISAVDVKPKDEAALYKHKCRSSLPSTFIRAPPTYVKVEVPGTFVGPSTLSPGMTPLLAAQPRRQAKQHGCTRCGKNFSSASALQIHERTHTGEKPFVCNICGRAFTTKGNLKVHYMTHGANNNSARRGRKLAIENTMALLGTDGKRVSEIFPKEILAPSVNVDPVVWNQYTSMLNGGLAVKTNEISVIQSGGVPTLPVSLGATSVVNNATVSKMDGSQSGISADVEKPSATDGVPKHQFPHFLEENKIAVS
GAGGTACC: -0.292
CTGTACCC: -0.24
CGCTCCTA: -0.0453
CATCTATC: 0.104
GACTTATA: 0.336
CGAGGATC: -0.123
TAGAGTCA: -0.107
CCAGGGAC: -0.327
CAGACACA: -0.058
GTTTAACA: 0.162
AGGGTGTC: -0.176
AAATGGTA: 0.276
CTTACTCA: -0.0048
AACAACCG: 0.014
CAATCGAC: 0.0146
CGCGTTGC: -0.117
